Experimental data from different studies.
Protocols differ between the studies behind these lines.
HDAC1: Histone deacetylase 1 (HDAC1, Homo sapiens, UniProt Q13547)
UniProt Q13547, sequence (whole entry, looked up): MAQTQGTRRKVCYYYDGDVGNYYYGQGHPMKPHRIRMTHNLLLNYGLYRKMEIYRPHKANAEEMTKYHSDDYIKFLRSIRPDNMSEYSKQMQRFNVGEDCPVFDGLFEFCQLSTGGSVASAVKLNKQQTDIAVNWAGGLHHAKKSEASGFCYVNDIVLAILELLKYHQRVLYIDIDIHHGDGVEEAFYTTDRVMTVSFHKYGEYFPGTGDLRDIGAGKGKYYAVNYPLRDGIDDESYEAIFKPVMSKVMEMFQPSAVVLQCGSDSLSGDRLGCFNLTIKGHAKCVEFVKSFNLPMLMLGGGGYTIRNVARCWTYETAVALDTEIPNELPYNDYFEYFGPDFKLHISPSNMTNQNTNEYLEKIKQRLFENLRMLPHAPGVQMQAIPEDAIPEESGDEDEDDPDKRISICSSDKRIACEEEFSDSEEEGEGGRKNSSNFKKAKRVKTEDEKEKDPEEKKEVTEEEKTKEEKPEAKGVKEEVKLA
HTR2C: 5-hydroxytryptamine receptor 2C (HTR2C, Homo sapiens, UniProt P28335)
UniProt P28335, sequence (whole entry, looked up): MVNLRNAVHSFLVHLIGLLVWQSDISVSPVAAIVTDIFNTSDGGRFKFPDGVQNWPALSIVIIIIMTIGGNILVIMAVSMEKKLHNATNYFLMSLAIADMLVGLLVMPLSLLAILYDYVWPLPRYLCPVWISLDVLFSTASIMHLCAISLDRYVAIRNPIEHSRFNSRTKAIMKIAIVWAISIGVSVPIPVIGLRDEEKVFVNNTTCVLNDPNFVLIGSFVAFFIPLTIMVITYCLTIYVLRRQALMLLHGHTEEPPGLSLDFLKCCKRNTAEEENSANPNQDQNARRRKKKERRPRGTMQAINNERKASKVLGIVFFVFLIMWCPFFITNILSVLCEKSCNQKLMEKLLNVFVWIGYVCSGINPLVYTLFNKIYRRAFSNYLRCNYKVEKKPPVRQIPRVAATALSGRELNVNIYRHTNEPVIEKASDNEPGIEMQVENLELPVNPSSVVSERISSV
SIRT6: NAD-dependent protein deacylase sirtuin-6 (SIRT6, Homo sapiens, UniProt Q8N6T7)
UniProt Q8N6T7, sequence (whole entry, looked up): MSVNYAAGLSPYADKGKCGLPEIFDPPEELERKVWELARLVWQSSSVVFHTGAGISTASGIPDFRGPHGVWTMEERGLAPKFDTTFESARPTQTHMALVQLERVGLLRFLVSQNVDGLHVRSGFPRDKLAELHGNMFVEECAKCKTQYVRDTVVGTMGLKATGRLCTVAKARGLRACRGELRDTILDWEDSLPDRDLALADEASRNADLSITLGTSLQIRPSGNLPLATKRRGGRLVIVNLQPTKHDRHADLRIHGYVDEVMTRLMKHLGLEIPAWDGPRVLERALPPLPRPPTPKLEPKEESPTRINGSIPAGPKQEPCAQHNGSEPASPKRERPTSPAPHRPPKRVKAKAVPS
UniProt Q9NVM4, sequence (whole entry, looked up): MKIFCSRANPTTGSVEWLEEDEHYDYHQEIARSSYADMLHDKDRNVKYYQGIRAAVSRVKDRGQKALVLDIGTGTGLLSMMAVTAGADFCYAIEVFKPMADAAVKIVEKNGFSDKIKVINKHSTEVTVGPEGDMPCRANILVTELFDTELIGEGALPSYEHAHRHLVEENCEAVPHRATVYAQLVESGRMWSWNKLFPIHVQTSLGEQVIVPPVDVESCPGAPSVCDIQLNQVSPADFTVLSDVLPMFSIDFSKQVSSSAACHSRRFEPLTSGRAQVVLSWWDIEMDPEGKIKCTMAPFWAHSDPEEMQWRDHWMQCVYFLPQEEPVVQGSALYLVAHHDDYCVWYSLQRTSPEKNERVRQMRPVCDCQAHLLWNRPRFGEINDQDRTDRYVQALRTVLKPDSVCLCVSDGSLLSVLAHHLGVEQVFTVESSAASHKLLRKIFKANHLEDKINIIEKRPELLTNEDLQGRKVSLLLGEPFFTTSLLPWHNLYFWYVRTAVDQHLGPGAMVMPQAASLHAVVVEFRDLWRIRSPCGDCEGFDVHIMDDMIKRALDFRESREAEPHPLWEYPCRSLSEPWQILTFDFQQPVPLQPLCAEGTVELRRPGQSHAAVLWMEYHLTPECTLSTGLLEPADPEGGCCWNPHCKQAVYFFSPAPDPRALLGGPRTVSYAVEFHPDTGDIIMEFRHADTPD
UniProt P00760, sequence (whole entry, looked up): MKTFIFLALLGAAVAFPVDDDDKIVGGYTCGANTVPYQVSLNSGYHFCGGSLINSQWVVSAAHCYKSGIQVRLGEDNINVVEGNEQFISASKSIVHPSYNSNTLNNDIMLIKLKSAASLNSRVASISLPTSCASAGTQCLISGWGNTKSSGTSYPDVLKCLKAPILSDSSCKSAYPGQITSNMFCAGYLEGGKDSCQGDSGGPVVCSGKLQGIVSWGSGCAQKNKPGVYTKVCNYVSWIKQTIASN
UniProt P13504, sequence (whole entry, looked up): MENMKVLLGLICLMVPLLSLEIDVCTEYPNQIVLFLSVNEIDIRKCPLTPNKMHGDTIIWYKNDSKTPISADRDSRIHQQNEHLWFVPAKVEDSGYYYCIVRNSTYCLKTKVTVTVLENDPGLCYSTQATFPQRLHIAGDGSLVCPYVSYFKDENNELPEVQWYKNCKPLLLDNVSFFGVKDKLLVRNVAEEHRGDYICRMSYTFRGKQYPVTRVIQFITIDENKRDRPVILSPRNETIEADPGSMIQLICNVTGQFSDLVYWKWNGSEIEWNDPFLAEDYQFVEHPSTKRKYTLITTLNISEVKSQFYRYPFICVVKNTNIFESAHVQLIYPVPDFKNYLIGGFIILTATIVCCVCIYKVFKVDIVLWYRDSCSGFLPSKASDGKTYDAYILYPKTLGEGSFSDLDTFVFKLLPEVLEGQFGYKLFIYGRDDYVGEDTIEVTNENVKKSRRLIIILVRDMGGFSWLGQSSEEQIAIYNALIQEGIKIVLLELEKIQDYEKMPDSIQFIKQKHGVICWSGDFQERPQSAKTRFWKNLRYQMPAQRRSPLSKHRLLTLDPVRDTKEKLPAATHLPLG
UniProt P51531, sequence (whole entry, looked up): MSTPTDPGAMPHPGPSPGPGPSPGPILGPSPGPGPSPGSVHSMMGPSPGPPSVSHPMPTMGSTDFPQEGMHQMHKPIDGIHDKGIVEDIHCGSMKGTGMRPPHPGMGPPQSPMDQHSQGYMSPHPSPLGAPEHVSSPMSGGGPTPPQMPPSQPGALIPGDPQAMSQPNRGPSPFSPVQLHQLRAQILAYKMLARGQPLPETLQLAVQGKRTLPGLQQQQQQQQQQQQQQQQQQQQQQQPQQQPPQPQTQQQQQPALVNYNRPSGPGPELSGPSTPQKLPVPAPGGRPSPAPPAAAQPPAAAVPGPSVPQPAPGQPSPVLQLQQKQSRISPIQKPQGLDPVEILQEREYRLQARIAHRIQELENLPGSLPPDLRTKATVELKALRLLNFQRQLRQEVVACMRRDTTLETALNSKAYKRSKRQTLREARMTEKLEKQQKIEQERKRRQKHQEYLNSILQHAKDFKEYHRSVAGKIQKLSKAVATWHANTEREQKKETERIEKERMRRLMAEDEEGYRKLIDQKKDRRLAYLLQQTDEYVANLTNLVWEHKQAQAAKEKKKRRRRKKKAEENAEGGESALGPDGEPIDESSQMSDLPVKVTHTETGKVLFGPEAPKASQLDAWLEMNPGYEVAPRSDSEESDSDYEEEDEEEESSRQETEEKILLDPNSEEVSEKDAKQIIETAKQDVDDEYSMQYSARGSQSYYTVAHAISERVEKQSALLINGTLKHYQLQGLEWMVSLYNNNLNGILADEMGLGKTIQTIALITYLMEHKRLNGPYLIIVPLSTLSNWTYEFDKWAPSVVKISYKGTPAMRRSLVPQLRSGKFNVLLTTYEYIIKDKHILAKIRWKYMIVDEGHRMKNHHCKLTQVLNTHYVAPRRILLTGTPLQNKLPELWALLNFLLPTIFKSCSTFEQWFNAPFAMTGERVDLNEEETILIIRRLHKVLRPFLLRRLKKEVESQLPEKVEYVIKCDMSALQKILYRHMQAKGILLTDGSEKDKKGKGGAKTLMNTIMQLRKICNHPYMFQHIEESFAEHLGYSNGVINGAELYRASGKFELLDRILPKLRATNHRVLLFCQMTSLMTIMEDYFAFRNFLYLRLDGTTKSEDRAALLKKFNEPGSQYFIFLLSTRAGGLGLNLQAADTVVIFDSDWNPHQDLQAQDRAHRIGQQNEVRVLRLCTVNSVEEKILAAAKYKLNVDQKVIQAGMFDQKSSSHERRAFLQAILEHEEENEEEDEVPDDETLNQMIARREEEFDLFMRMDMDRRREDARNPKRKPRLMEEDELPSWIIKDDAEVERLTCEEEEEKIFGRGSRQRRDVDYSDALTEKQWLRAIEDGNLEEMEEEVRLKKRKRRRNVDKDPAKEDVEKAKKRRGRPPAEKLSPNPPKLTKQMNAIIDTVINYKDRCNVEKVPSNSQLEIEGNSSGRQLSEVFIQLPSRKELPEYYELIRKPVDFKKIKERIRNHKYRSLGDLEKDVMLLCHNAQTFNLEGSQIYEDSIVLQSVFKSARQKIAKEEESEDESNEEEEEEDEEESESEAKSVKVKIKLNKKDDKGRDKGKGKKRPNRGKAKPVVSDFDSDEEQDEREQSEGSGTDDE
UniProt P43358, sequence (whole entry, looked up): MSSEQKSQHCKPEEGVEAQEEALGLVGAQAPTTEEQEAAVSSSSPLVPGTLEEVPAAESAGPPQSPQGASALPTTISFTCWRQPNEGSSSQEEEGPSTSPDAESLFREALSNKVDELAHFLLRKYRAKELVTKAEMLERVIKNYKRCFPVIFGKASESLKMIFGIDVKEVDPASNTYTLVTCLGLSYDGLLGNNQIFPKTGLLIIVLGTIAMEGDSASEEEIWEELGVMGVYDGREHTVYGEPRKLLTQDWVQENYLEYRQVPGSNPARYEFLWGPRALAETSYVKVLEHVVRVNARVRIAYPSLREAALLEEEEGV

SMILES	target	assay	test system	setting	inhibition
C/C=C/C(=O)Nc1ccc2nc(NCCCCCN(C)C)nc(NCCCCCCN(C)C)c2c1	PRMT7 (Homo sapiens, UniProt Q9NVM4)	enzyme activity, inhibitor, radiometric		50 µM	69%
NC(=O)[C@@H](O)C[C@H]1CCc2sc3ncnc(O[C@H]4CC[C@H](N5CCOCC5)CC4)c3c21	PKN3 (Homo sapiens, UniProt Q6P5Z2)	enzyme activity, inhibitor		10 µM	35%
Cc1c(COc2cc(OCc3cccc(C#N)c3)c(CNC(CO)CO)cc2Cl)cccc1-c1cccc(OCCCCCC(=O)NO)c1	HDAC1	enzyme activity, inhibitor		1 µM	57%
C[Si](C)(C)C[C@@H](CN)CC(=O)O	HTR2C	ligand displacement, radioligand		75 µM	-26%
O=C(NC1CCC1)[C@H](Cc1c[nH]c2ccccc12)NC(=O)[C@H](CCCCNC(=S)NCCc1noc(=O)[nH]1)NS(=O)(=O)c1cccc(F)c1	SIRT6	demyristoylase activity		10 µM, added: myristoylated peptide substrate and NAD+ 500 µM	< 0%
C[C@H](NC(=O)[C@H](CC(=O)NCC(C)(C)C)NC(=O)CCc1ccccc1)C(=O)NCc1ccccc1Cl	Procathepsin L (CTSL, Homo sapiens, UniProt P07711)	enzyme activity, inhibitor		100 µM	21%
O=C1c2sc(-c3ccc(N4CCC(F)C4)nc3F)nc2CCN1c1cccnc1 (centres unmarked)	HTR2C	ligand displacement, radioligand		1 µM	-6%
COc1cc(-c2cn(C)c(=O)c3cnccc23)cc(OC)c1CN(C)C	SWI/SNF-related matrix-associated actin-dependent regulator of chromatin subfamily A member 2, isoform B (SMARCA2, Homo sapiens, UniProt P51531)			1 µM	-2.4%
C=CC(=O)Nc1cccc(-c2cnc3[nH]cc(C(=O)NC(C)(C)C)c3n2)c1	EIF2AK3 (Homo sapiens, UniProt Q9NZJ5)	enzyme activity, inhibitor		0.1 µM	5%
CC[C@@H](N[C@@H](C)CC(N)=O)c1ccc(Cl)c(Oc2ccccc2)c1F	Serine protease 1 (PRSS1, Bos taurus, UniProt P00760)	enzyme activity		concentration not given	inactive
CC[C@H](C)[C@@H]1NC(=O)[C@H](Cc2ccc(O)cc2)NC(=O)CCSCc2cccc(c2)CSCCNC(=O)[C@H](Cc2c[nH]cn2)NC(=O)[C@H](Cc2ccc(O)cc2)NC(=O)[C@H](CC(=O)O)NC(=O)[C@H](Cc2ccc(F)cc2)NC(=O)[C@H](CC(C)C)NC(=O)[C@H](CCCNC(=N)N)NC1=O	Melanoma-associated antigen 4, MHD; with RAD18 (Homo sapiens, UniProt P43358)	protein-protein interaction, NanoBRET	HEK293	20 µM	> 50%
COc1cc(-n2cc3cc(F)cc(C(N)=O)c3n2)cc(Cl)c1C1CC(O)(CCO)Cc2ccccc21 (centres unmarked)	PARP9 (Homo sapiens, UniProt Q8IXQ6)	enzyme activity, inhibitor		10 µM	6.92%
Cc1c(COc2cc(OCc3cccc(C#N)c3)c(CNCCO)cc2Cl)cccc1-c1cccc(OCc2ccc(C(=O)NO)cc2)c1	HDAC1	enzyme activity, inhibitor		1 µM	20.8%
CCCCCCN(O)C(=O)CCCCC[C@@H]1NC(=O)[C@H](CCSC)NC(=O)CCSCc2cccc(n2)CSCCNC(=O)[C@H](Cc2ccc(Cl)cc2Cl)NC1=O	HDAC1	enzyme activity, inhibitor, fluorogenic		30 µM	30%
CCCCCCCCCCCCCC(=S)NCCCC[C@H](NC(=O)OCc1ccccc1)C(=O)Nc1ccccc1	SIRT6	enzyme activity, inhibitor		10 µM, added: myristoylated substrate	< 5%
C=CC(=O)N1Cc2nc(-c3cc(-c4cc(Cl)cnc4Cl)c(F)cc3F)n(-c3ccncn3)c2C1	TESK2 (Homo sapiens, UniProt Q96S53)	cell-free assay, inhibitor		1 µM	-3.8%
C[Si]1(C[C@H](CN)CC(=O)O)CCCC1	Interleukin-1 receptor type 1 (Il1r1, Mus musculus, UniProt P13504)	binding, radioligand binding		70 µM, added: iodinated interleukin-1 beta	2%

A few entries again:
SMILES	target	assay	test system	setting	inhibition
C[Si]1(C[C@H](CN)CC(=O)O)CCCC1	Interleukin-1 receptor type 1 (Il1r1, Mus musculus, UniProt P13504)	binding, radioligand binding		70 µM, added: iodinated interleukin-1 beta	2%
